Earlier results as cited in several papers.
Each line is one published result; not all experiments were run side by side. ± gives the spread as reported. Converted amounts (≈) assume the structure as drawn.

CC[C@H](C)[C@H](NC(=O)[C@H](Cc1c[nH]cn1)NC(=O)[C@H](CC(N)=O)NC(=O)[C@H](Cc1ccccc1)NC(=O)[C@H](Cc1ccc(O)cc1)NC(=O)[C@H](Cc1ccc(O)cc1)NC(=O)[C@@H](NC(=O)[C@H](CCCNC(=N)N)NC(=O)CNC(=O)[C@H](CO)NC(=O)[C@H](CO)NC(=O)[C@H](CCCNC(=N)N)NC(=O)[C@H](CC(N)=O)NC(=O)[C@H](CCSC)NC(=O)[C@H](CCCNC(=N)N)NC(=O)[C@H](CCCCN)NC(=O)[C@H](CCC(=O)O)NC(=O)[C@H](Cc1c[nH]c2ccccc12)NC(=O)CNC(=O)[C@@H]1CCCN1C(=O)[C@@H]1CCCN1C(=O)[C@H](CC(C)C)NC(=O)[C@@H](N)CCCCN)C(C)C)C(=O)N[C@H](C(=O)N[C@@H](CC(N)=O)C(=O)N[C@@H](C)C(=O)N[C@@H](CC(N)=O)C(=O)N[C@@H](CCC(N)=O)C(=O)N[C@@H](Cc1ccccc1)C(=O)N[C@@H](CCC(=O)O)C(=O)N[C@@H](CCCNC(=N)N)C(=O)N1CCC[C@H]1C(=O)N[C@@H](CO)C(=O)NCC(=O)O)[C@@H](C)O — melting temperature (protein folding; 50 µM, pH 7): 49.2 ± 0.6 °C
Cc1cc(N)nc(C[C@@H]2CNC[C@@H]2OCCNCCc2cccc(F)c2)c1 (racemic) — toxicity (pregnant rabbits; dose not given): not toxic
O=C(NC1CCOCC1)c1csc([C@@H]2C[C@H]2NCC2CC2)c1 (relative stereo) — tolerability (clinical trial; human): not toxic
COC(=O)C(c1ccccc1Cl)N1CCC(SCC(=O)c2cccc(OC)c2)C(=CC(=O)O)C1 (mixture of isomers) — Cmax (human; concentration not given): 18 to 30 ng/mL
CCN(CC)C(=S)c1ccc(-c2c3ccc(=[N+](C)C)cc-3sc3cc4c(cc23)C(C)(C)CCN4C)s1 — absorption maximum (methanol): 597 nm
O=P(O)(O)CN(CCN(CP(=O)(O)O)CP(=O)(O)O)CP(=O)(O)O.[175Yb+3] — tissue uptake (bone; 4 h): 4.37 %ID/g
Cc1cccc(-c2cccc(C)n2)n1.[Ru+2].c1ccc(-c2cccc(-c3ccccn3)n2)nc1.c1ccncc1 — ligand exchange quantum yield (acetonitrile; concentration not given): 0.33
CCCCCCC[C@@H](CC(=O)O)OC(=O)C[C@@H](CCCCCCC)O[C@@H]1O[C@@H](C)[C@H](O)[C@@H](O)[C@H]1O — minimum surface tension (pH 8): 27.4 ± 0.2 mN/m
C=C[C@@H]1C[C@]1(NC(=O)[C@@H]1C[C@@H](Oc2cc(-c3ccccc3)nc3cc(OC)ccc23)CN1C(=O)[C@@H](NC(=O)OC(C)(C)C)C(C)(C)C)C(=O)NS(=O)(=O)C1CC1 — concentration (rat, liver; oral, 20 mg/kg, 4 h): 5.8 µM
Cc1ccccc1-c1cc(N2CC[N+](C)([O-])CC2)ncc1N(C)C(=O)C(C)(C)c1cc(C(F)(F)F)cc(C(F)(F)F)c1 — half-life (healthy volunteers, plasma; oral, 450 mg, single dose, with: palonosetron 0.75 mg): 68.6 h
C=C[C@@H]1C[C@]1(NC(=O)[C@@H]1C[C@@H](Oc2ncc(OC)c3cc(Cl)ccc23)CN1C(=O)[C@@H](NC(=O)OC(C)(C)C)C(C)(C)C)C(=O)NS(=O)(=O)C1CC1 — heart rate change (isolated perfused rabbit heart; 10 µM): -11%
N=S(=O)(c1ccccc1)N1CCCCC1 (centres unmarked) — recovery (HCl buffer; 24 h, pH 1): 100%
CN1CCN(c2cc(-c3ccccc3CO)c(N(C)C(=O)C(C)(C)c3cc(C(F)(F)F)cc(C(F)(F)F)c3)cn2)CC1 — AUC(0-inf) (patients, plasma; oral, dose not given, netupitant-palonosetron combination, with: docetaxel 75 to 100 mg/m^2 IV): 5950 ng·h/mL
CC(C)S(=O)(=O)c1cccc(O)c(=O)c1O — pKa1: 3.8
COC(=O)c1cc(=O)n(C)c2cc(-c3ccc(OC)cc3)sc12 — absorption maximum (dichloromethane; 10 µM): 400 nm
Oc1cccc(-c2cccc(O)n2)n1.[Cl-].[Cl-].[Ru+2].c1cnc2c(c1)ccc1cccnc12.c1cnc2c(c1)ccc1cccnc12 — pKa1: 5.2
CC(C)(C)C1=CC(=NNC(=O)c2ccncc2)C=C(C(C)(C)C)C1=O — logD (pH 7.4): 3.9
CC1=C(C2=C(C)C(=O)c3c(cc(O)c(O)c3C(C)C)C2=O)C(=O)c2cc(O)c(O)c(C(C)C)c2C1=O (racemic) — degradation (rat liver microsomes; 40 min): 53%
CC(C)OC(=O)[C@H](CO)NCc1cc(Cl)c(OCc2cccc(-c3ccccc3)c2Br)cc1OCc1cccnc1 — transformation (monkey liver S9; 40 min): 100%
CN1CCC(C)(C)c2cc3c(-c4ccc(C(=S)N5CCCCC5)s4)c4ccc(=[N+](C)C)cc-4sc3cc21 — molar extinction coefficient (methanol): 61800 M⁻¹ cm⁻¹
Nc1ncnc2c1ncn2[C@H]1C[C@H](O)[C@@H](COP(=O)(O)OP(=O)(O)[C@@H](F)P(=O)(O)O)O1 — pKa4 (item: bisphosphonate leaving group; aqueous solution; measured experimentally): 9
C=C[C@@H]1C[C@]1(NC(=O)[C@@H]1C[C@@H](Oc2ncc(OC)c3ccccc23)CN1C(=O)[C@@H](NC(=O)OC(C)(C)C)C(C)(C)C)C(=O)NS(=O)(=O)C1CC1 — AUC (rat; 30 mg/kg): 0.37 µM·h
O=C([O-])CN1CCN(CC(=O)[O-])CCN(CC(=O)NCC2CCC(C(=O)NC(Cc3ccc4ccccc4c3)C(=O)NCCCCC(NC(=O)NC(CCC(=O)O)C(=O)O)C(=O)O)CC2)CCN(CC(=O)[O-])CC1.[68Ga+3] (centres unmarked) — absorbed dose (human, spleen; literature data): 0.029 mSv/MBq
COc1cc(-c2cncc(-c3ccc(C4CCN(C)CC4)cc3)c2C)cc(OC)c1OC — brain/plasma ratio (SCID mouse female; oral, 10 mg/kg, 4 h): 0.82
CCCCCCc1ccc(Oc2ccccc2C#N)c(O)c1 — Cmax (mouse; 40 mg/kg): 280 ng/mL
O=[N+]([O-])c1ccc(/N=N/c2ccc(N(CCS(=O)(=O)O)CCS(=O)(=O)O)cc2)cc1 — pKa (water; 10 µM): 2.1
COc1cc2c(NC3CCN(C)CC3)nc(N3CCCN(C)CC3)nc2cc1OCc1ccccc1 — kinetic solubility (simulated gastric fluid; pH 2): > 100 µg/mL
O=C(Nc1ccc(Br)cc1)Nc1ccc2nc(-c3ccco3)c(-c3ccco3)nc2c1 — oral bioavailability (rat; oral): 16%
COc1cc(-c2cnn(C)c2)ccc1Nc1ncc2ccnc(N[C@@H](C)C(C)(C)C)c2n1 — intrinsic clearance (human liver microsomes): 151 µL/min/mg protein
CCn1nc(Cl)c2c1-c1cnc(N)c(c1)O[C@H](C)c1cc(F)ccc1-c1nn(C)cc1C2 — Cmax, free, steady state (human, plasma; oral, 150 mg once daily): 40 nmol/L
CCCC(CCC)C(=O)[O][Pt]([Cl])([Cl])[O]C(C)=O.N.N — logP (shake flask; octanol/water): 0.17 ± 0.02
C=CC1CC1(NC(=O)C1CC(Oc2nccc3cc(OC)ccc23)CN1C(=O)C(NC(=O)OC(C)(C)C)C(C)(C)C)C(=O)O (centres unmarked) — sinus node recovery time change (isolated perfused rabbit heart; 10 µM, time not given): 37%
CC(=O)Nc1ccc(C(=O)Nc2cc(-c3cccs3)ccc2N)cc1 — brain-to-plasma ratio (mouse; intraperitoneal, 45 mg/kg): 0.5
Cc1cc(N)nc(CC2CNCC2OCCNCC(F)(F)c2cccc(F)c2)c1 (racemic) — pKa (amine next to CF2 group): ~5.5
Cc1ccccc1-c1cc(N2CCNCC2)ncc1N(C)C(=O)C(C)(C)c1cc(C(F)(F)F)cc(C(F)(F)F)c1 — Tmax (healthy volunteers, plasma; oral, 450 mg, single dose, netupitant alone): 24.2 h
O=C([O-])CN1CCN(CC(=O)[O-])CCN(CC(=O)c2ccccc2)CCN(CC(=O)[O-])CC1.[Gd+3] — activation enthalpy of water exchange (concentration not given, SAP isomer): 50 kJ/mol
Cc1cc(NC2Cc3cc(F)c(F)cc3C2)n2nc(C(C)(F)F)nc2n1 — apparent half-life (mouse, plasma; oral, 20 mg/kg): 2.5 h
COCCOCCOCCOCCC(=O)NCc1cc(CNC(=O)CCOCCOCCOCCOC)cc(-c2cc3cc4nc(c(OC)c5[nH]c(cc6nc(cc2[nH]3)CC6(C)C)cc5-c2cc(CNC(=O)CCOCCOCCOCCOC)cc(CNC(=O)CCOCCOCCOCCOC)c2)CC4(C)C)c1 — Qy emission maximum (PBS; room temperature): 733 nm
C=C[C@@H]1C[C@]1(NC(=O)[C@@H]1C[C@@H](Oc2nccc3c(OC)cccc23)CN1C(=O)[C@@H](NC(=O)OC(C)(C)C)C(C)(C)C)C(=O)NS(=O)(=O)C1CC1 — clearance (rat; dose not given): 6 mL/min/kg
Cc1cc(/C=C2\CN(C(C)C)C/C(=C\c3cc(C)c(O)c(C)c3)C2=O)cc(C)c1O — solubility (water): ~32.9 mg/L (≈ 81.1 µM)
O=C(O)CCc1ccc(O)c(CN(CCN(CC(=O)O)Cc2cc(CCC(=O)NCCCCCC(=O)NCCCC[C@H](NC(=O)N[C@@H](CCC(=O)O)C(=O)O)C(=O)O)ccc2O)CC(=O)O)c1 — logP: -2.91 ± 0.06
